Experimental data pooled from the literature.
Every numbered part comes from another study and shows a few of its results, in no order.

Block 1 — method: protein binding microarray; form: double-stranded DNA, one strand shown; matrix: in vitro; concentration: not given; baseline: not given; reading: higher = stronger binding
Target: Histone acetyltransferase KAT6A, winged helix 2, GST fusion (KAT6A, Homo sapiens, UniProt Q92794, residues 85-181)
Setting: 8-mer, flanks averaged, mean of 2 arrays, mostly near background
Construct (chain): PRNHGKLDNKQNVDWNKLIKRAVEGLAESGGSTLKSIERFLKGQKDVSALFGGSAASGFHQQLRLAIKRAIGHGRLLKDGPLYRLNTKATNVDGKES
Strand	E-score
CTAGACTC	-0.383
AATGGGTC	-0.0642
AAAGCGTC	0.00217
AGACAACA	0.00053
CGCATAGA	-0.00798
TGGAAAAA	0.0398
AAGATTCT	-0.0499
CATCACTC	-0.0835
ACCGAGAT	0.0501

Block 2 — method: protein-binding microarray; form: double-stranded DNA, one strand shown; matrix: in vitro; concentration: 250 nM; setting: 60-bp whole probe; together with: salmon DNA 0.4 mg/ml; baseline: random background probes; reading: higher = stronger binding; constant ends, left off below: GCCTAGCAC … GTCTTGATTCGCTTGACGCTGCTG
Target: Interferon regulatory factor 5, full length, phosphomimetic (IRF5, Homo sapiens, UniProt Q13568-2, residues 1-514, K96S/S451D/S453D/S456D/S462D)
Strand	log fluorescence
TGGAGCCTAAGGTTTAGGCTCGTGCTA	-0.176 z-score
TTTTTTCTACTTCTGTTTTTGTGCTAG	2.96 z-score
GACGATTTCAGAGTGGAGACGTGCTAG	0.125 z-score
TCATTTTTTAGCTTCTCACTGTGCTAG	0.884 z-score
GACGGACTGTTTATCCTGACGTGCTAG	-0.351 z-score
TCAAGTTTTTATTTTCTACTGTGCTAG	2.11 z-score

Block 3 — method: universal PBM; form: double-stranded DNA, one strand shown; matrix: in vitro; concentration: 600 nM; reading: higher = stronger binding
Target: Sal-like protein 4, full length isoform A (SALL4, Homo sapiens, UniProt Q9UJQ4, residues 1-1053)
Sequence of UniProt Q9UJQ4 (whole entry, looked up): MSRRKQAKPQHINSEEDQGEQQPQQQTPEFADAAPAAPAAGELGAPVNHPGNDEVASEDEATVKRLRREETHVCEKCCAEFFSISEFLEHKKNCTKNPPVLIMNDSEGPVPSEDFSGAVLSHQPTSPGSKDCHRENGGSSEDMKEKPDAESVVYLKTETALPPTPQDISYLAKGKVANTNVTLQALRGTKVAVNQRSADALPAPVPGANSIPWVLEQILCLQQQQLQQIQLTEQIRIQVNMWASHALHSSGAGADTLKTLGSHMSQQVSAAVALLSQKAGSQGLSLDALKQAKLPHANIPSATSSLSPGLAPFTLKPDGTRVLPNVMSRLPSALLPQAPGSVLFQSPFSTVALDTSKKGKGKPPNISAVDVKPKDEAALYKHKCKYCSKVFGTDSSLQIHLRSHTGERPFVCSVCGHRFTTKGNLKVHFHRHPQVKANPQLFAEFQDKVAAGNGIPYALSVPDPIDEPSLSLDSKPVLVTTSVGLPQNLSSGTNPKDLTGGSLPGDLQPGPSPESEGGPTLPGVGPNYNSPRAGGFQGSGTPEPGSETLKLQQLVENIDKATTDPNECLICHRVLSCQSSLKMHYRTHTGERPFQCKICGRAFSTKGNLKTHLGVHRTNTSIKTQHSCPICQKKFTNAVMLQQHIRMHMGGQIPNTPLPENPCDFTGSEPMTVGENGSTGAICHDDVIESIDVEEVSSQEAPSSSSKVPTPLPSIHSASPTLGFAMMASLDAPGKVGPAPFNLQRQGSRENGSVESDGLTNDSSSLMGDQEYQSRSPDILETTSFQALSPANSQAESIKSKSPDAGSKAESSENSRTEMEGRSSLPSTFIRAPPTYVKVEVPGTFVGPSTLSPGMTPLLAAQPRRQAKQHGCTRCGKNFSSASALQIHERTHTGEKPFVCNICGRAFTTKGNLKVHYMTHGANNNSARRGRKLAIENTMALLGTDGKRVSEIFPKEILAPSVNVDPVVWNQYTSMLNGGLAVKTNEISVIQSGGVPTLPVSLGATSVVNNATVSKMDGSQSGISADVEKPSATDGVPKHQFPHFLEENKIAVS
Setting: 8-mer, flanks averaged, mean of replicates
Strand	E-score
ACCGTACC	-0.259
GTTACAAC	0.108
ATAGCAGG	-0.00685
GGGTTCGA	-0.248
TATTGGAA	0.281
AAATCAAC	0.127

Further values, each from its own experiment
Molecule	target	assay	system	setting	how to read	measurement	result
PhoQ, residues 284 288 289 292 302 303 TASMAF	PhoP, residues 12 14 15 18 19 YHFSH (Escherichia coli, UniProt P23836)	Sort-seq, measured: YFP reporter	E. coli	PhoQ-PhoP variant library, together with: 10 µM Mg2+	baseline: high Mg2+ state, higher = stronger signaling	fold induction	6.24

Excerpt of the above (block 1):
Strand	E-score
AAGATTCT	-0.0499
CATCACTC	-0.0835
ACCGAGAT	0.0501
